Experimental data gathered from unrelated publications.
Each line is one published result; not all experiments were run side by side. pIC50: −log10 of the molar value.
Sequence of UniProt P10721 (whole entry, looked up): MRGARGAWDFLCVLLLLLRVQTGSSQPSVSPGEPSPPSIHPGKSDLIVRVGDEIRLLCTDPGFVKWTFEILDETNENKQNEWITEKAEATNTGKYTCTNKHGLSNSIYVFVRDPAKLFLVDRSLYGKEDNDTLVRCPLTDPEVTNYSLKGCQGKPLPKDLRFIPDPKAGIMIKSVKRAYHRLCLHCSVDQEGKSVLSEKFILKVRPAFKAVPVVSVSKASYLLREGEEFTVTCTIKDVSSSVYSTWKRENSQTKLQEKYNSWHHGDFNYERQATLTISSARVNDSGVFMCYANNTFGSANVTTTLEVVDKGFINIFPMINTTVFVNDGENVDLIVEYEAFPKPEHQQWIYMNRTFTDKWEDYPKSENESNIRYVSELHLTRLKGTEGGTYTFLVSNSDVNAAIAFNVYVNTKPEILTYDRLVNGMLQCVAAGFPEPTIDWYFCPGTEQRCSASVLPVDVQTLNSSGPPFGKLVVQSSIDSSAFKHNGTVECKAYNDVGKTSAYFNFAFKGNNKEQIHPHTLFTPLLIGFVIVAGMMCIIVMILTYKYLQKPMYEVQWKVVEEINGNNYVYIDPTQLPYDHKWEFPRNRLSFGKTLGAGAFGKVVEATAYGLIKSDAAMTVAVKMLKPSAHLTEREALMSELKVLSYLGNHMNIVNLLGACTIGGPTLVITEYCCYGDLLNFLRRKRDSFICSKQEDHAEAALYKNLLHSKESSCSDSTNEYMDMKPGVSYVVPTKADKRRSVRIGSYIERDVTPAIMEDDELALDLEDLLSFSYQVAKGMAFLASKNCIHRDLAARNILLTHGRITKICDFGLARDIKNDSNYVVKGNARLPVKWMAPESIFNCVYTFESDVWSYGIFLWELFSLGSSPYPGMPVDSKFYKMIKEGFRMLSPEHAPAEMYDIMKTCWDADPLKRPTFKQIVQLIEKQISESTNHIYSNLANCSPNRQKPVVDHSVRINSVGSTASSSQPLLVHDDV
Sequence of UniProt O14920 (whole entry, looked up): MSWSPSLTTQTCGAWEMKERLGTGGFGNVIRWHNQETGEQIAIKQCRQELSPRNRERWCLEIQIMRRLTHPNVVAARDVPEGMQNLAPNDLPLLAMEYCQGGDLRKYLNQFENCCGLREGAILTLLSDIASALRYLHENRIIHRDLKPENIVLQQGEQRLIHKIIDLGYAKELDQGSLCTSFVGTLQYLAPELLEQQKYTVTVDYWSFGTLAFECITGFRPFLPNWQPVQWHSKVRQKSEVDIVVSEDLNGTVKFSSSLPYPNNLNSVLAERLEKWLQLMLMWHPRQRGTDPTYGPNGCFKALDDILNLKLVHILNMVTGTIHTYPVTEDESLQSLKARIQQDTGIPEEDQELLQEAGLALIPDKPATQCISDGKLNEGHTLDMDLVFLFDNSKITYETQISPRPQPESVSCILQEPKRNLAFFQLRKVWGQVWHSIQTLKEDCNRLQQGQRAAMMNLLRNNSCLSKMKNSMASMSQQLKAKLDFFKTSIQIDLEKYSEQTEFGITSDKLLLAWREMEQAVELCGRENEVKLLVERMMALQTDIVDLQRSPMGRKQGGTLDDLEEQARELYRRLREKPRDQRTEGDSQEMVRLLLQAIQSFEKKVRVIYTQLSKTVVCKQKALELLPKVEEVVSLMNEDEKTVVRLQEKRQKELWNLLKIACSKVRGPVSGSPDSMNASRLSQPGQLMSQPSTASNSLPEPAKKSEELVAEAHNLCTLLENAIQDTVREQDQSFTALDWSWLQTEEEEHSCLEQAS
Sequence of UniProt Q12809 (whole entry, looked up): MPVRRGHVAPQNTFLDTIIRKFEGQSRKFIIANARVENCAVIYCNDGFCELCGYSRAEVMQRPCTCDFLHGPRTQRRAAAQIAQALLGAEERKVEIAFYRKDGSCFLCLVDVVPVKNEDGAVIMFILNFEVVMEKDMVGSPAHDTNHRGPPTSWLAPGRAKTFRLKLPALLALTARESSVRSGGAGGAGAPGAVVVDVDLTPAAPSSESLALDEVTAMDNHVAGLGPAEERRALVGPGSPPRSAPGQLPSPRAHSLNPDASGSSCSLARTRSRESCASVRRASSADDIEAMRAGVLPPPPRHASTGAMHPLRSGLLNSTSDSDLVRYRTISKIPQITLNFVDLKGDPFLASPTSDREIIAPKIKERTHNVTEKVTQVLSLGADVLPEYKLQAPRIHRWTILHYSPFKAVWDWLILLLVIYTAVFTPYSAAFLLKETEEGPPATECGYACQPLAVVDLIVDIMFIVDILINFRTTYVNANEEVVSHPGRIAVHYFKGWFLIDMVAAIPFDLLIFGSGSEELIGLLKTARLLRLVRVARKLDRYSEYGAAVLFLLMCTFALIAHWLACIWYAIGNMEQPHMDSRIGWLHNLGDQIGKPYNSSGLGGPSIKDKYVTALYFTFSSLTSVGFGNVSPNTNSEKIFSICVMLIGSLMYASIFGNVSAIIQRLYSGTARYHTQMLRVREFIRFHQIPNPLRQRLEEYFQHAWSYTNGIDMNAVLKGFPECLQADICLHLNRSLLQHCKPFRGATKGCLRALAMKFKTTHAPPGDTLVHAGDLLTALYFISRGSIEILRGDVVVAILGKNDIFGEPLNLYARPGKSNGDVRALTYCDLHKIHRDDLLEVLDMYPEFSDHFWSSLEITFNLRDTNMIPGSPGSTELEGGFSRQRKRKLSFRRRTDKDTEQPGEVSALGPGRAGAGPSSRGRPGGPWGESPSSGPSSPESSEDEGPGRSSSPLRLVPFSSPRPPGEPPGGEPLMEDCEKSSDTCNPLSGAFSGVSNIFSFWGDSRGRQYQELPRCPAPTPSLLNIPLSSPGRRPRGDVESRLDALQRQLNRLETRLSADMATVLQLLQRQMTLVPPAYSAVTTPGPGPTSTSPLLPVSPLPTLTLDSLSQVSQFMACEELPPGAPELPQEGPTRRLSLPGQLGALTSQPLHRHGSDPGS
Sequence of UniProt O94768 (whole entry, looked up): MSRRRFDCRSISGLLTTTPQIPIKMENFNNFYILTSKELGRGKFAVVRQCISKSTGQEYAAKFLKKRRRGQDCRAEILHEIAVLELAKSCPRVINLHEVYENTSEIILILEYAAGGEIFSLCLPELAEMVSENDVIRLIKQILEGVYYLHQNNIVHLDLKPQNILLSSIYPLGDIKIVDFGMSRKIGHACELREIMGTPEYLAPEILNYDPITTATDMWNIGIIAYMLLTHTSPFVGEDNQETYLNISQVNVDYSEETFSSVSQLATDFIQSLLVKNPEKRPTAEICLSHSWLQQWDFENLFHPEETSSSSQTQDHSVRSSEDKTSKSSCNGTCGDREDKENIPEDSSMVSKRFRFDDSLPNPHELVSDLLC
Sequence of UniProt O94788 (whole entry, looked up): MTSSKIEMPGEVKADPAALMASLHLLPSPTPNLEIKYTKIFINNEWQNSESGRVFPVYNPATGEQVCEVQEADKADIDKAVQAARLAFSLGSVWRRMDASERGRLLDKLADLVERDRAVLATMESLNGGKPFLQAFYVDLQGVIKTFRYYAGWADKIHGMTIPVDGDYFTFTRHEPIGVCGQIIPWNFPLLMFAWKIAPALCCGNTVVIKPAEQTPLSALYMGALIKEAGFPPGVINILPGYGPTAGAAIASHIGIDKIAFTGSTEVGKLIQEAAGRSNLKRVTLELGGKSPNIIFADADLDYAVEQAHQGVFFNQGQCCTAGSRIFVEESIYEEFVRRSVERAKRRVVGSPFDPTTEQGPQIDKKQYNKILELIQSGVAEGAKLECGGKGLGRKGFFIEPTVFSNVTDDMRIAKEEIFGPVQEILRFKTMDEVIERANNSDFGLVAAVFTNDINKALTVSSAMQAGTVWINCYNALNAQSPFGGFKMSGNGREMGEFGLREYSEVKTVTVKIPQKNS

Compound = NCc1cc2c(cc1F)C(=O)N(C1CCC(=O)NC1=O)C2 (stereo not shown); system = male CD-1 mouse, plasma; setting = intravenous, 1 mg/kg, 1.02 min; quantity = concentration; result = 1400 ng/mL
Compound = COc1cccc2c(N3CCC(CCP(=O)(O)O)CC3)ncnc12; tested on = EMT6 tumour model; system = female BALB/c, tumour; setting = subcutaneous, 50 mg/kg, tumour-bearing; quantity = Cmax; result = 9000 ng/g
Compound = O=C1CC[C@H](N2Cc3cc(N4CCN(CC5CCN(c6ccc([C@@H]7c8ccc(O)cc8CC[C@@H]7c7ccccc7)cc6)CC5)CC4)ccc3C2=O)C(=O)N1; system = male Sprague-Dawley rat, plasma; setting = oral, 20 mg/kg, fed; quantity = AUC(0-t); result = 9780 ng·h/mL
Compound = CNc1ncc2c(/C=C/C(=O)N3CCC(OC)CC3)nn(Cc3cccc(C(F)(F)F)c3)c2n1; tested on = KIT (Homo sapiens, UniProt P10721); assay = enzyme activity, inhibitor, radiometric; setting = 1 µM; quantity = remaining activity; result = 82%
Compound = COc1cccc(OC)c1-c1cc(C(=O)NC2(C(=O)O)C3CC4CC(C3)CC2C4)nn1-c1ccc(C(=O)N(C)CCCN(C)CCCN(C)C(=O)CN2CCN(CC(=O)[O-])CCN(CC(=O)[O-])CCN(CC(=O)[O-])CC2)cc1C(C)C.[177Lu+3] (stereo not shown); tested on = HT-29 tumour model; system = host not given, tumour; setting = intravenous, 4 h, tumour-bearing; quantity = tracer uptake; result = 29 %ID/g
Compound = OC[C@H]1O[C@@H](Oc2ccc(O)c3cccc(O)c23)[C@H](O)[C@@H](O)[C@@H]1O; tested on = ALDH1A2 (Homo sapiens, UniProt O94788); assay = enzyme activity, inhibitor, fluorescence; quantity = pIC50; result = > 5.00
Compound = O=C(c1ccc(F)cc1)C1CCN(CCn2c(=O)[nH]c3ccccc3c2=O)CC1; assay = metabolic stability, mass spectrometry; system = mouse, liver microsomes; setting = 15 min; quantity = compound remaining; result = 47.3%
Compound = C=CC(=O)N1CCC(COCC(=O)N2CCN(c3nc(-c4cnc(N)nc4C(F)F)nc(N4CCOC[C@@H]4C)n3)CC2)CC1; tested on = IKBKB (Homo sapiens, UniProt O14920); assay = binding, competition with immobilised ligand; setting = 1 µM; quantity = remaining binding; result = 100%
Compound = CN(C)C(=O)CN1CCN(c2cnc3c(cc(C(=O)NCc4ccc(Cl)cc4)c(=O)n3CC(=O)N3CC(C)(F)C3)n2)C1=O; tested on = KCNH2 (Homo sapiens, UniProt Q12809); assay = ion current, inhibitor, patch clamp; setting = 40 µM; quantity = inhibition; result = 42%
Compound = COc1cccc(OC)c1-c1cc(C(=O)NC2(C(=O)O)C3CC4CC(C3)CC2C4)nn1-c1ccc(C(=O)N(C)CCCN(C)CCCN(C)C(=O)CN2CCN(CC(=O)[O-])CCN(CC(=O)[O-])CCN(CC(=O)[O-])CC2)cc1C(C)C.[177Lu+3] (stereo not shown); tested on = HT-29 tumour model; system = host not given, blood; setting = 24 h, tumour-bearing; quantity = tracer uptake; result = 0.05 %ID/g
Compound = COc1cc(-c2cncc3c2CN(C)Cc2cc(N4CCNCC4)ccc2-3)cc(OC)c1OC; tested on = STK17B (Homo sapiens, UniProt O94768); assay = enzyme activity, inhibitor; setting = 1 µM; quantity = remaining activity; result = 111%
Compound = Nc1ccn([C@@H]2O[C@H](CO)[C@@H](O)C2(F)F)c(=O)n1; tested on = MDA-MB-231; assay = cell growth or viability, MTT; setting = 2.5 µg/mL, 48 h; quantity = viability; result = 61.9%
Compound = COc1cccc(-c2n[nH]c(SCc3ccccn3)n2)c1OC; system = male Sprague-Dawley rat, plasma; setting = intravenous, 1 mg/kg, 30 min, single dose; quantity = concentration; result = 676 ng/mL

Repeated from above:
Compound = NCc1cc2c(cc1F)C(=O)N(C1CCC(=O)NC1=O)C2 (stereo not shown); system = male CD-1 mouse, plasma; setting = intravenous, 1 mg/kg, 1.02 min; quantity = concentration; result = 1400 ng/mL
